# Assay results pooled from the literature.
# Every numbered part comes from another study and shows a few of its results, in no order. Substitutions count along the parent as printed.

# Block 1
# Target: CCNA2, cyclin fold, Cln2 fusion (human)
# Method: yeast growth competition, sequencing
# Sample: yeast
# Setting: strong parent motif
# Relative to: not given
# Reading: higher = stronger binding
# Starting sequence: E2F1 docking peptide (human); PPVKRRLDFETDH; partner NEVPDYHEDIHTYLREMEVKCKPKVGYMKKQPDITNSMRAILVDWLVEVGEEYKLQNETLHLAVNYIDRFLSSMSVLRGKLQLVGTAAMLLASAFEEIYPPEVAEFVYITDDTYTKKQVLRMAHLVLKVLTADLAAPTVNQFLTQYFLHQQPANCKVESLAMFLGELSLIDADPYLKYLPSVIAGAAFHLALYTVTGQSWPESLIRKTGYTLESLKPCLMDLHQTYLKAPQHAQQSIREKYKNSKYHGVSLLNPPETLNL
Substitution,normalised enrichment score
PEVKRRLDFETDH [P2E],5.79
PPVKRRLFFETDH [D8F],6.52
PQVKRRLDFETDH [P2Q],6.08
PPVKRRCDFETDH [L7C],1.2
PPGKRRLDFETDH [V3G],4.93
PPDKRRLDFETDH [V3D],0.112
PPVKRRFDFETDH [L7F],0.58
PPVKRPLDFETDH [R6P],2.76
PPVKRRLPFETDH [D8P],5.71
PPEKRRLDFETDH [V3E],0.717
PPVKRRLDFPTDH [E10P],5.9
PPVDRRLDFETDH [K4D],2.58
PPVKRRLDQETDH [F9Q],0.481
PPVKRRLDFETCH [D12C],5.99
PPVKRRLDFDTDH [E10D],5.88
PPVKSRLDFETDH [R5S],0.662
PPVKRRHDFETDH [L7H],0.169
PPPKRRLDFETDH [V3P],6.15
PPSKRRLDFETDH [V3S],6.14
PPVKRRLDPETDH [F9P],0.107
PPVKRRLDFHTDH [E10H],6.62
PPVKRRLDFNTDH [E10N],6.4
PAVKRRLDFETDH [P2A],6.19
PPQKRRLDFETDH [V3Q],2.47
PPVLRRLDFETDH [K4L],3.72

# Block 2
# Target: ABI1, truncated, D143A, DHFR fusion (Arabidopsis thaliana)
# Method: DHFR PCA, deep sequencing
# Sample: yeast
# Setting: methotrexate growth selection, single substitutions
# With: (+)-ABA 4.8 µM
# Relative to: wild-type fitted maximum
# Reading: higher = stronger binding
# Starting sequence: PYL1, truncated, DHFR fusion (Arabidopsis thaliana); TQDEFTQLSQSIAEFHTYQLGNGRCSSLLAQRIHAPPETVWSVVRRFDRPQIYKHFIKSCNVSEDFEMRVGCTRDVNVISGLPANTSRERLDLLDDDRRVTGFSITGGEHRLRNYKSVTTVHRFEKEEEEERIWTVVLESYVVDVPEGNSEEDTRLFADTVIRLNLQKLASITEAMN
Substitution,relative binding score [%]
Q2D,79.9
G21D,71.4
E139K,7.53
D3T,61.5
L156R,19.9
F124Y,78.1
V62G,3.19
N85E,83.4
V100Q,-2.73
H16V,5.97
L156A,74.2
T73E,74.1
T135R,-6.5
S27F,11

# Block 3
# Target: Max dimerization protein 1, bHLH-zipper, MAX partner unstated (MXD1, Homo sapiens, UniProt Q05195, residues 56-136)
# Method: protein-binding microarray
# Molecule type: double-stranded DNA, one strand shown
# Sample: in vitro
# Concentration: not given
# Setting: k-mer, scored over probes, only values ≥0.25
# Reading: higher = stronger binding
# Residues (chain): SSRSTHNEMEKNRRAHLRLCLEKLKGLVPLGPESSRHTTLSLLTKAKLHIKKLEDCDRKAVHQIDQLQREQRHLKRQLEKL
Strand,E-score
CCCACTCC,0.337
CTGCACGC,0.357
ACACGCCG,0.372
CACGCTGG,0.305
CAATCACG,0.271
ACACACGT,0.375
CCCCTCCC,0.392
ACCCTCGT,0.256
CGTGCTTA,0.329
CGCATGAG,0.34
AACGTGTA,0.326
AAGCGTGA,0.363
CGTGCGAA,0.309
GTGGGGGA,0.308
ACGTGGAT,0.402
CGCGCGCG,0.253
GTGCAGAA,0.303

# Block 4
# Target: UBE2V2 UBC core domain (UniProt Q15819)
# Method: yeast two-hybrid
# Sample: yeast
# Setting: mostly zero background
# Relative to: not given
# Reading: higher = stronger interaction
# B1: TRIM54 RING domain (UniProt Q9BYV2); chain SMDNLEKQLICPICLEMFSKPVVILPCQHNLCRKCANDVFQASNPLWQSRGSTTVSSGGRFRCPSCRHEVVLDRHGV
# B2: DEF8 RING domain (UniProt Q6ZN54); chain AGRLGCSLTEIHTLFAKHIKLDCERCQAKGFVCELCREGDVLFPFDSHTSVCADCSAVFHRDCYYDNSTTCPKCARLSLRK
# B3: MEX3B RING domain (UniProt Q6ZN04); chain SGLRRKGSRDCSVCFESEVIAALVPCGHNLFCMECANRICEKSEPECPVCHTAVTQAIRIF
# B4: RNF2 RING domain (UniProt Q99496); chain SPRSLHSELMCPICLDMLKNTMTTKECLHRFCADCIITALRSGNKECPTCRKKLVSKRSLR
# B5: TRIM26 RING domain (UniProt Q12899); chain PLRSLEEEVTCSICLDYLRDPVTIDCGHVFCRSCTTDVRPISGSRPVCPLCKKPFKKENIRP
# B6: RLIM RING domain (UniProt Q9NVW2); chain SFGENDALKTCSVCITEYTEGNKLRKLPCSHEYHVHCIDRWLSENSTCPICRRAVLASGNRE
# B7: RNF152 RING domain (UniProt Q8N8N0); chain ETLSQDSLLECQICFNYYSPRRRPKLLDCKHTCCSVCLQQMRTSQKDVRCPWCRGVTKLPPGFS
# B8: RNF122 RING domain (UniProt Q9H9V4); chain AKKLQLYGQTCAVCLEDFKGKDELGVLPCQHAFHRKCLVKWLEVRCVCPMCNKPIASPSEAT
# Residues (chain): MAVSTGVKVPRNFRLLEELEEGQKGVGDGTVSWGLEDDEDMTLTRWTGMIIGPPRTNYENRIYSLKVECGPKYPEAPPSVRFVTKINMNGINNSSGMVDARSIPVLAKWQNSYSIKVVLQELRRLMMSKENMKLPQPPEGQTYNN
Molecule,lacZ reporter activity
B1 (TRIM54 RING domain),0
QVQSRTKIEECVVCSDKKAAVLFQPCGHMCACENCANLMKKCVQCRAVVERRVPFI (MIB1 RING domain (UniProt Q86YT6)),0
RYRQMEERITCPICIDSHIRLVFQCGHGACAPCGSALSACPICRQPIRDRIQIF (MIB2 RING domain (UniProt Q96AX9)),0
B2 (DEF8 RING domain),0
MNDVLENELQCIICSEYFIEAVTLNCAHSFCSYCINEWMKRKIECPICRKDIKSKTYSL (RNF8 RING domain (UniProt O76064)),0
KPDKMEETLTCIICQDLLHDCVSLQPCMHTFCAACYSGWMERSSLCPTCRCPVERICKNH (CHFR RING domain (UniProt Q96EP1)),0
FVKTVEDKYKCEKCHLVLCSPKQTECGHRFCESCMAALLSSSSPKCTACQESIVKDKVF (TRAF3 RING domain (UniProt Q13114)),0
B3 (MEX3B RING domain),0
B4 (RNF2 RING domain),0
B5 (TRIM26 RING domain),0
B6 (RLIM RING domain),0
LDAASGHPLVCPLCHGQYERPCLLDCFHDFCTGCLRGRATDGRLSCPLCQHQTLVKGPSG (Rnf207 RING domain (UniProt Q3V3A7)),0
YPEEVDDDLICHICLQALLDPLDTPCGHTYCTLCLTNFLVEKDFCPMDRKPLVLQHCKK (LNX1 RING domain (UniProt Q8TBB1)),0
B7 (RNF152 RING domain),0
LGTKLEAKYLCSACRNVLRRPFQAQCGHRYCSFCLASILSSGPQNCAACVHEGIYEEGIS (TRAF2 RING domain (UniProt Q12933)),0
B8 (RNF122 RING domain),0

# Block 5
# Target: Interferon regulatory factor 5, full length, phosphomimetic (IRF5, Homo sapiens, UniProt Q13568-2, residues 1-514, S451D/S453D/S456D/S462D)
# Method: protein-binding microarray
# Molecule type: double-stranded DNA, one strand shown
# Sample: in vitro
# Concentration: 940 nM top
# Setting: 60-bp whole probe
# With: salmon DNA 0.4 mg/ml
# Relative to: random background probes
# Reading: higher = stronger binding
# All sequences stand within: GCCTAGCAC … GTCTTGATTCGCTTGACGCTGCTG
Strand,fitted relative affinity
TTAGGTTTCGGACCGGGTTAGTGCTAG,7.16 z-score
TTAGGTATCCTTCTCCTTAAGTGCTAG,0.674 z-score
GACGATATCGGGAATGGAGACGTGCTA,0.106 z-score
AGACATTCTTTCAGTTGGAAGTGCTAG,0.577 z-score
GACAGACTGGGACTGGGGACGTGCTAG,-0.495 z-score
GACGGTCTCGTACTGCTGACGTGCTAG,0.571 z-score
TTATGACTGGGGACTGGGTTAGTGCTA,0.0753 z-score
GACGGTGTCCTTATCCTGACGTGCTAG,-0.0496 z-score
GACGATTTCGGGTATCCAGACGTGCTA,0.6 z-score
TCACCTCTCACCTCGGCACTGTGCTAG,1.03 z-score
GACGGACCGGGACTGGGGACGTGCTAG,-0.47 z-score
GACGGTTTAGGGTTTCGGGACGTGCTA,2.28 z-score
CCTGGCTCCATGGAATTTTTGTGCTAG,-0.543 z-score
TTAGGTTTCCGTCTCGGTTAGTGCTAG,4.37 z-score
CAAGTTACCCACCTCAGGTAGTGCTAG,0.155 z-score
TTAGGACTGGGGACTGGGTGAGTGCTA,-0.263 z-score
TCAGTTATAATATTATTACTGTGCTAG,0.165 z-score
TACGGTCTCCTACTGCTGACGTGCTAG,0.0161 z-score
TTAGATATCGGGAATCGATTAGTGCTA,0.166 z-score
AAGTAAAATGCAAAGAGGAAGTGCTAG,-0.23 z-score
TCAAGTTTATACCTTAGACTGTGCTAG,-0.311 z-score
GACGGTAACGGGACTGGGGACGTGCTA,-0.432 z-score
TCAAGTATGACTCTGCCACTGTGCTAG,-0.154 z-score
TTAGGTATGGACTTTCGGTTAGTGCTA,2.1 z-score
TCATATATATGTGTATAACTGTGCTAG,0.0247 z-score

# Excerpt of the above (block 3):
Strand,E-score
GTGGGGGA,0.308
CGTGCTTA,0.329
CCCCTCCC,0.392
AAGCGTGA,0.363
ACACACGT,0.375
ACACGCCG,0.372
CACGCTGG,0.305
CAATCACG,0.271
CTGCACGC,0.357
CGCATGAG,0.34
CGTGCGAA,0.309
ACCCTCGT,0.256
AACGTGTA,0.326
ACGTGGAT,0.402
CGCGCGCG,0.253
GTGCAGAA,0.303
